# Published values from different studies.
# Each line is one published result; not all experiments were run side by side. ± marks the error that the study gave.
SMILES,assay,test system,setting,how to read,quantity,result
N=C(N)NCCC[C@@H]1NC(=O)[C@H](CCCCNC(=O)c2ccc(CNC34CNCCNCC(NCc5ccc(C(=O)NCCCC[C@@H]6NC(=O)[C@@H](Cc7ccc(O)cc7)NC(=O)[C@H](CC(=O)O)NC(=O)CNC(=O)[C@H](CCCNC(=N)N)NC6=O)cc5)(CNCCNC3)CNCCNC4)cc2)NC(=O)[C@@H](Cc2ccc(O)cc2)NC(=O)[C@H](CC(=O)O)NC(=O)CNC1=O [copper-64 labelled],HPLC,"nude mouse, U-87 MG xenograft, liver",1 h post injection,,intact compound,> 95%
CCCC[C@H](NC(=O)CNC(=O)[C@H](CO)NC(=O)CNC(=O)c1ccc(NN)nc1)C(=O)N[C@H]1CC(=O)NCCCC[C@@H](C(N)=O)NC(=O)[C@H](Cc2c[nH]c3ccccc23)NC(=O)[C@H](CCCNC(=N)N)NC(=O)[C@@H](Cc2ccccc2)NC(=O)[C@H](Cc2c[nH]cn2)NC1=O [technetium-99m labelled],,"C57 mouse, B16/F1 melanoma, stomach","intravenous, 2 h",,uptake,0.48 ± 0.39 %ID/g
C[C@H](NC(=O)CNC(=O)[C@H](CCC(=O)O)NC(=O)[C@H](CCC(=O)O)NC(=O)[C@H](CC(=O)O)NC(=O)[C@@H]1CCCN1C(=O)[C@H](Cc1ccccc1)NC(=O)[C@H](CS)NC(=O)[C@H](Cc1ccc(O)cc1)NC(=O)CCCNC(=O)CNC(=O)CNC(=O)[C@@H](C)NC(=O)CN)C(=O)N[C@@H](CS)C(=O)N[C@@H](Cc1ccc(O)cc1)C(N)=O [technetium-99m labelled],HPLC,human serum,"1 h, 37 °C",,radiochemical purity,97.14 ± 0.45%
N=C(N)NCCC[C@@H]1NC(=O)[C@H](CCCCNC(=O)CNC(=O)CNC(=O)CNC(=O)CC[C@H](NC(=O)CCOCCOCCOCCOCCNC(=O)CC[C@H](NC(=O)CN2CCN(CC(=O)O)CCN(CC(=O)O)CCN(CC(=O)O)CC2)C(=O)NCCOCCOCCOCCOCCC(=O)N[C@@H](CCC(=O)NCC(=O)NCC(=O)NCC(=O)NCCCC[C@@H]2NC(=O)[C@@H](Cc3ccccc3)NC(=O)[C@H](CC(=O)O)NC(=O)CNC(=O)[C@H](CCCNC(=N)N)NC2=O)C(=O)NCC(=O)NCC(=O)NCC(=O)NCCCC[C@@H]2NC(=O)[C@@H](Cc3ccccc3)NC(=O)[C@H](CC(=O)O)NC(=O)CNC(=O)[C@H](CCCNC(=N)N)NC2=O)C(=O)NCC(=O)NCC(=O)NCC(=O)NCCCC[C@@H]2NC(=O)[C@@H](Cc3ccccc3)NC(=O)[C@H](CC(=O)O)NC(=O)CNC(=O)[C@H](CCCNC(=N)N)NC2=O)NC(=O)[C@@H](Cc2ccccc2)NC(=O)[C@H](CC(=O)O)NC(=O)CNC1=O [indium-111 labelled],,"athymic nude mice, female, U-87 MG glioma xenograft, tumour and liver","intravenous, 24 h",relative to: tumour over liver,tumour to tissue ratio,6.46 ± 1.33
CSCC[C@H](NC(=O)[C@H](CC(C)C)NC(=O)[C@H](Cc1c[nH]cn1)NC(=O)CNC(=O)[C@@H](NC(=O)[C@H](C)NC(=O)[C@H](Cc1c[nH]c2ccccc12)NC(=O)[C@H](CCC(N)=O)NC(=O)CCCCCNC(=O)CNC(=O)CNC(=O)CNC(=O)CSC(C)=O)C(C)C)C(N)=O [technetium-99m labelled],,"Swiss mouse, bone","intravenous, 18.5 MBq, 240 min",,tissue uptake,0.4 ± 0.11 %ID/g
CCCC[C@H](NC(=O)CCCCCCCNC(=O)c1ccc(NN)nc1)C(=O)N[C@H]1CC(=O)NCCCC[C@@H](C(N)=O)NC(=O)[C@H](Cc2c[nH]c3ccccc23)NC(=O)[C@H](CCCNC(=N)N)NC(=O)[C@@H](Cc2ccccc2)NC(=O)[C@H](Cc2c[nH]cn2)NC1=O [technetium-99m labelled],,"C57 mouse, B16/F1 melanoma, brain","2 h, added: L-lysine 12 mg co-injected",,tissue uptake,0.03 ± 0.01 %ID/g
N=C(N)NCCC[C@@H]1NC(=O)[C@H](CCCCNC(=O)CCOCCOCCOCCOCCNC(=O)CN2CCN(CC(=O)O)CCN(CC(=O)O)CCN(CC(=O)O)CC2)NC(=O)[C@@H](Cc2ccccc2)NC(=O)[C@H](CC(=O)O)NC(=O)CNC1=O [indium-111 labelled],,"athymic nude mice, female, U-87 MG glioma xenograft, tumour and heart","intravenous, 1 h",relative to: tumour over heart,tumour to tissue ratio,6.36 ± 1.25
CCCC[C@H](NC(=O)CNC(=O)CNC(=O)c1ccc(NN)nc1)C(=O)N[C@H]1CC(=O)NCCCC[C@@H](C(N)=O)NC(=O)[C@H](Cc2c[nH]c3ccccc23)NC(=O)[C@H](CCCNC(=N)N)NC(=O)[C@@H](Cc2ccccc2)NC(=O)[C@H](Cc2c[nH]cn2)NC1=O [technetium-99m labelled],,"C57 mouse, B16/F1 melanoma","2 h, added: NDP-MSH blockade",relative to: tumour over liver,uptake ratio,0.87
